Published values gathered from unrelated publications.
Compare with care: the assays were run in different laboratories. Numbers after ± are the reported error.

For `NCC(O)CN.Oc1c(Cl)c(Cl)c(Cl)c(Cl)c1Cl`, the CC50 was 86.2 µM (HepG2 cells; cell viability; 24 h).
`COc1ccc2c3c([nH]c2c1)[C@H](CO)N(Cc1ccccc1)CC31CCN(C(=O)Cc2ccccc2)CC1` has a CC50 of 99 µM (HEp-2, uninfected).
The CC50 of `O=c1c2ccccc2[se]n1-c1ccccc1` is reported as 5.4 µM (RD; 3 (unit not given), 33 °C, with: MgCl2 30 mM).
`CCCCCCCCCCCCCCCCOP(=O)([O-])OCC[N+](C)(C)C` has a CC50 of 128 ± 8.85 µM (J774A.1; alamarBlue).
For `Cc1cccc(-c2ccc([C@@H]3[C@@H](CO)N4CCCCN(S(=O)(=O)c5cn(C)cn5)C[C@@H]34)cc2)c1`, the CC50 was 56 µM (HEp-2, uninfected).
The CC50 of `CCCCC[CH2][Hg][S]c1nc(N)nc2[nH]cnc12` is reported as 3.41 µM (HepG2 cells; cell viability; 24 h).
`O=c1sn(-c2cccc3ccccc23)c(=O)n1Cc1ccccc1` has a CC50 of 12.8 µM (RD; 3 (unit not given), 33 °C, with: MgCl2 30 mM).
`CCOC(=O)/C=C/[C@H](C[C@@H]1CCNC1=O)NC(=O)[C@@H](CC(=O)[C@@H](NC(=O)c1cc(C)on1)C(C)C)Cc1ccc(F)cc1` gave a CC50 of 208.3 ± 1.72 µM (BHK-21; 24 (unit not given)).
For `CCCCCCCCCCCCCCCCSSCCOP(=O)(O)CO[C@H](C)Cn1cnc2c(N)ncnc21`, the CC50 was 14.3 µM (human PBMC; cell growth or viability).
`Cn1cnc(S(=O)(=O)N2CCCCN3[C@H](CO)[C@@H](c4ccc(-c5ccc(F)cc5)cc4)[C@@H]3C2)c1` has a CC50 of 64 µM (HEp-2, uninfected).
`Nc1cc[c]([Hg][S]c2nc(N)nc3c2ncn3[C@@H]2O[C@H](CO)[C@@H](O)[C@H]2O)cc1` gave a CC50 of 4.71 µM (HepG2 cells; cell viability; 24 h).
For `COc1cc(CN2CC3(CCN(S(=O)(=O)c4cn(C)cn4)CC3)c3c(n(C)c4cc(OC)ccc34)[C@H]2CO)cc(OC)c1`, the CC50 was over 100 µM (HEp-2, uninfected).
`c1cnc2c(c1)ccc1cccnc12` has a CC50 of 1.28 µM (HepG2 cells; cell viability; 24 h).
With `O=S(=O)(c1cccs1)N1CCCCN2[C@H](CO)[C@@H](c3ccc(/C=C/c4ccccc4)cc3)[C@@H]2C1` the CC50 was over 100 µM (HEp-2, uninfected; original sample).
`CCN(CC)C(=S)SSC(=S)N(CC)CC` has a CC50 of 1.5 µM (RD; 3 (unit not given), 33 °C, with: MgCl2 30 mM).

Some of these lines once more:
For `Cc1cccc(-c2ccc([C@@H]3[C@@H](CO)N4CCCCN(S(=O)(=O)c5cn(C)cn5)C[C@@H]34)cc2)c1`, the CC50 was 56 µM (HEp-2, uninfected).
With `O=S(=O)(c1cccs1)N1CCCCN2[C@H](CO)[C@@H](c3ccc(/C=C/c4ccccc4)cc3)[C@@H]2C1` the CC50 was over 100 µM (HEp-2, uninfected; original sample).
